Results pooled from the literature.
Lines come from different studies, so protocols differ. Converted amounts (≈) assume the structure as drawn.
PFF0160c E182D: Dihydroorotate dehydrogenase (quinone), mitochondrial (PFF0160c, Plasmodium falciparum, UniProt Q08210, E182D)
Sequence of UniProt P57058 (whole entry, looked up): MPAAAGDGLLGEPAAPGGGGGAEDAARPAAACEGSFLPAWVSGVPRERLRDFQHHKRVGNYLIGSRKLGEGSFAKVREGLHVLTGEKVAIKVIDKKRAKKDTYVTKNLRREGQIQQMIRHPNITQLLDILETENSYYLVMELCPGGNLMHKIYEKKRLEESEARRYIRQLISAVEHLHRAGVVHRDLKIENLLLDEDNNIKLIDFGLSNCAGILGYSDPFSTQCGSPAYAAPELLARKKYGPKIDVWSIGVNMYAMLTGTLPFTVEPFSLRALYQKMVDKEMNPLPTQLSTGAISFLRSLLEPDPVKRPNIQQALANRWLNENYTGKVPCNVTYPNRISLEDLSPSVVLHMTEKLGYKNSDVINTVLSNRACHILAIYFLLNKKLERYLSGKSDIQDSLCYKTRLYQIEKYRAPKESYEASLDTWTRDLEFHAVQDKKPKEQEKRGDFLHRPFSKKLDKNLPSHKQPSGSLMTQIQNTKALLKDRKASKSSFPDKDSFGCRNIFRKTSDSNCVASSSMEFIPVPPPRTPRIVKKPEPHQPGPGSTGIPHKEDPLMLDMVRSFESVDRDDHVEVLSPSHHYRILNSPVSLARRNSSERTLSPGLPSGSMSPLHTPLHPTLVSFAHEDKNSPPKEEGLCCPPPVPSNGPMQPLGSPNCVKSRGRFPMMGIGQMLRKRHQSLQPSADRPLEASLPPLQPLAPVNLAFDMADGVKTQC
Sequence of UniProt Q9NY57 (whole entry, looked up): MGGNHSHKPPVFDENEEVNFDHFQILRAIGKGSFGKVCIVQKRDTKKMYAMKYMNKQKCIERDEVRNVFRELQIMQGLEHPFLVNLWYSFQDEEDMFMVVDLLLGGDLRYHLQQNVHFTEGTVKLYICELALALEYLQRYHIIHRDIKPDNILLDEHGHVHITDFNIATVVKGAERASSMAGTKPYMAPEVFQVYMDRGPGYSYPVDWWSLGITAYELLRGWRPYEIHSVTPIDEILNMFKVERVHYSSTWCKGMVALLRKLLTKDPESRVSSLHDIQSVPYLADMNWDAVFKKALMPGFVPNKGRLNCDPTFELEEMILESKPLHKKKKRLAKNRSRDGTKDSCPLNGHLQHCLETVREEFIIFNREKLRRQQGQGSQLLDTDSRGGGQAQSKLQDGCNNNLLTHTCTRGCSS
Sequence of UniProt Q13523 (whole entry, looked up): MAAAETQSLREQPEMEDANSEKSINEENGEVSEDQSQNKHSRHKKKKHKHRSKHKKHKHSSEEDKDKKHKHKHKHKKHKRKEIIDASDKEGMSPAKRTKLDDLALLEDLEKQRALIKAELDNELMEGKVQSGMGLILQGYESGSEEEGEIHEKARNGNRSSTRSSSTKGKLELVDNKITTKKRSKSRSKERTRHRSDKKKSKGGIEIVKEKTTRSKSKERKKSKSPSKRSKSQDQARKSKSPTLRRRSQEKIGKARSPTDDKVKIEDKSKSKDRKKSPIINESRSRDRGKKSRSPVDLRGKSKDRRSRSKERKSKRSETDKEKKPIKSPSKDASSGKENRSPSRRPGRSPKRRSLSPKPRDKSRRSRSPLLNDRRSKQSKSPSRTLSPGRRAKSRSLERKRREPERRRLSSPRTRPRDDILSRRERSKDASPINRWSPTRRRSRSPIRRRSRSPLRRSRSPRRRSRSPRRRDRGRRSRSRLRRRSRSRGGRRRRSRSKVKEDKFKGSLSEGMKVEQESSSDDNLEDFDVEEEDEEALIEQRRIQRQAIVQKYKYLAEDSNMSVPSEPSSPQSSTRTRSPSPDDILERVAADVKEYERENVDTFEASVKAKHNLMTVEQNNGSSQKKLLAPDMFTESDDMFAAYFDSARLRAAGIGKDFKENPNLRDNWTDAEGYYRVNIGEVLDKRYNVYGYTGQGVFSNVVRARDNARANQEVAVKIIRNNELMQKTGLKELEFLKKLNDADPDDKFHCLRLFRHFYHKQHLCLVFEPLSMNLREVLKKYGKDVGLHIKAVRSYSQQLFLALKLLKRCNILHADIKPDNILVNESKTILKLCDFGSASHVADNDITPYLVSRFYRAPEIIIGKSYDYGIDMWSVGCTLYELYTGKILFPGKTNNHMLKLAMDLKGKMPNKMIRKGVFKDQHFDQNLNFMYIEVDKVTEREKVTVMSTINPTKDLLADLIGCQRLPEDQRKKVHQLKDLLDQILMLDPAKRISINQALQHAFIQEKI

SMILES = COC(=O)c1cc(-c2cccc(NC(=O)Nc3cccc(Cl)c3)c2)on1; target or system = Mycolicibacterium fortuitum; assay = microbial growth, broth dilution; system = ATCC6841; conditions = 48 h; measurement = MIC; result = > 64 µg/mL
SMILES = COc1ccccc1C=Nc1ccc(SCc2cc(=O)c(O)co2)cc1; assay = DPPH scavenging, absorbance; conditions = 30 min; measurement = IC50; result = 36.5 µM
SMILES = Cc1nn(C)cc1-c1nc2c(N3CCN(Cc4ccc(Cl)cc4)CC3)c(Cl)cnc2[nH]1; target or system = Hormonally up-regulated neu tumor-associated kinase (HUNK, Homo sapiens, UniProt P57058); assay = binding, competition with immobilised ligand; conditions = 1 µM; measurement = remaining binding; result = 66%
SMILES = COc1ccc(-c2cc(C(F)(F)F)c3c(N)c(C(=O)N4CC(OC)C4)sc3n2)cc1; target or system = Mycobacterium tuberculosis; assay = microbial growth; system = H37RV; measurement = IC50; result = > 100 µM
SMILES = Nc1ncc(-c2nc(N3CCOCC3)nc(N3CCOCC3)n2)c(C(F)F)n1; target or system = Serine/threonine-protein kinase PRP4 homolog (PRPF4B, Homo sapiens, UniProt Q13523); assay = binding, competition with immobilised ligand; conditions = 10 µM; measurement = remaining binding; result = 100%
SMILES = C#Cc1cccc(C(=O)NN=Cc2cc(C#C)ccc2O)c1; target or system = Cryptococcus neoformans; assay = microbial growth, broth dilution; conditions = pH 7.4; measurement = MIC80; result = 0.12 µg/mL (≈ 0.416 µM)
SMILES = COC(=O)c1cc(-c2cccc(NC(=O)Nc3cc(OC)ccc3OC)c2)on1; target or system = Klebsiella pneumoniae; assay = microbial growth, broth dilution; system = BAA1705; measurement = MIC; result = > 64 µg/mL
SMILES = [2H]c1c([2H])c([C@]2([2H])CCCN2C(=O)C(C)(C)Oc2ccc3cn[nH]c3c2)c([2H])c([2H])c1C([2H])([2H])[2H]; target or system = Serine/threonine-protein kinase 32B (STK32B, Homo sapiens, UniProt Q9NY57); assay = binding, competition with immobilised ligand; conditions = 1 µM; measurement = remaining binding; result = 100%
SMILES = COc1ncccc1-c1cnn2ccc(N3CCN(C(=O)OC(C)C)CC3)nc12; target or system = Serine/threonine-protein kinase pim-3 (PIM3, Homo sapiens, UniProt Q86V86); assay = binding, competition with immobilised ligand; conditions = 1 µM; measurement = remaining binding; result = 100%
SMILES = OC(Cn1cncn1)(Cn1cncn1)c1ccc(F)cc1F; target or system = Candida albicans; assay = microbial killing, broth dilution; system = 14936; conditions = 48 h; measurement = MFC; result = > 64 µM
SMILES = O=c1cc(CSc2ccc(N=Cc3ccccc3)cc2)occ1O; assay = DPPH scavenging, absorbance; conditions = 30 min; measurement = IC50; result = 4.75 µM
SMILES = Cc1ccc(NC(=O)c2sc3nc(-c4ccccc4)cc(C(F)(F)F)c3c2N)cc1; target or system = Mycobacterium tuberculosis; assay = microbial growth; system = H37RV; measurement = IC50; result = > 100 µM
SMILES = CCCCCCNC(=S)Nc1cccc(-c2cc(C(=O)OC)no2)c1; target or system = Mycolicibacterium fortuitum; assay = microbial growth, broth dilution; system = ATCC6841; conditions = 48 h; measurement = MIC; result = > 64 µg/mL
SMILES = O=c1cc(CSc2ccc(N=Cc3ccc(C(F)(F)F)cc3)cc2)occ1O; assay = DPPH scavenging, absorbance; conditions = 30 min; measurement = IC50; result = 42.3 µM
SMILES = COc1ccc(-c2cc(C)c3c(N)c(C(=O)Nc4cccc(C)c4C)sc3n2)cc1; target or system = Mycobacterium tuberculosis; assay = microbial growth; system = H37RV; measurement = IC50; result = > 100 µM
SMILES = N.N.[Cl][Pt][Cl]; target or system = HeLa; assay = cell growth or viability, MTT; measurement = GI50; result = 2.64 µM
SMILES = C#Cc1n[nH]c2c(-c3cn([C@@H](C)c4ccccn4)c(=O)[nH]c3=O)cc(F)cc12; target or system = Cyclin-dependent kinase 2, with cyclin E1 (CDK2, Homo sapiens, UniProt P24941); assay = enzyme activity, inhibitor; conditions = 0.1 µM; measurement = inhibition; result = -9%
SMILES = Cc1cccc2c(CNCC3(N4CCCC4)COC3)c[nH]c12; target or system = A 172; assay = cell growth or viability; conditions = 30 µM, 48 h; measurement = viability; result = 52.4%
SMILES = C#Cc1cccc(O)c1C=NNC(=O)c1ccc(Br)c(Br)c1; target or system = Cryptococcus neoformans; assay = microbial growth, broth dilution; conditions = pH 7.4; measurement = MIC80; result = 0.06 µg/mL (≈ 0.142 µM)
SMILES = CCOC(=O)C1=C[C@@H](OC(CC)CC)[C@H](NC(C)=O)[C@@H](N)C1; target or system = Human coronavirus 229E; assay = cytopathic effect; system = A549; conditions = 25 µM; measurement = inhibition; result = 67%
SMILES = COC(=O)c1cc(-c2cccc(NC(=O)Nc3ccc(Cl)cc3)c2)on1; target or system = Mycolicibacterium fortuitum; assay = microbial growth, broth dilution; system = ATCC6841; conditions = 48 h; measurement = MIC; result = > 64 µg/mL
SMILES = C#Cc1cccc(O)c1C=NNC(=O)c1ccc(Br)cc1; target or system = Cryptococcus neoformans; assay = microbial growth, broth dilution; conditions = pH 7.4; measurement = MIC80; result = 0.125 µg/mL (≈ 0.364 µM)
SMILES = COC(=O)c1cc(-c2ccc(NC(=O)Nc3ccc(Cl)c(Cl)c3)cc2)on1; target or system = Klebsiella pneumoniae; assay = microbial growth, broth dilution; system = BAA1705; measurement = MIC; result = > 64 µg/mL
SMILES = CC(C)(C)c1ccc(C=Nc2ccc(SCc3cc(=O)c(O)co3)cc2)cc1; assay = DPPH scavenging, absorbance; conditions = 30 min; measurement = IC50; result = 30.6 µM
SMILES = COC1CN(C(=O)c2sc3nc(-c4ccccc4)ccc3c2N)C1; target or system = Mycobacterium tuberculosis; assay = microbial growth; system = H37RV; measurement = IC50; result = 31 µM
SMILES = Nc1ncnc2c([C@@H]3N[C@H](CO)[C@@H](O)[C@H]3O)c[nH]c12; target or system = unidentified influenza virus; assay = viral replication, inhibitor; system = MDCK; conditions = 9.5 µM; measurement = inhibition; result = 30.3%
SMILES = Cc1ccc(NC(=O)c2cc(S(=O)(=O)NC(C)(C)C)ccc2C)nc1; target or system = PFF0160c E182D; assay = enzyme activity, inhibitor, absorbance; measurement = IC50; result = > 10 µM
SMILES = Nc1c(C(=O)NC23CC4CC(CC(C4)C2)C3)sc2nc(-c3ccc4c(c3)OCO4)cc(C(F)(F)F)c12; target or system = Mycobacterium tuberculosis; assay = microbial growth; system = H37RV; measurement = IC50; result = 0.57 µM
SMILES = C#Cc1cccc(O)c1C=NNC(=O)c1ccc(Br)cc1Br; target or system = Cryptococcus neoformans; assay = microbial growth, broth dilution; conditions = pH 7.4; measurement = MIC80; result = 0.031 µg/mL (≈ 0.0734 µM)
SMILES = CN1C(=O)C(C2C3=C(CC(C)(C)CC3=O)Oc3c(O)cccc32)C(=O)N(C)C1=O (stereo not shown); target or system = 3T3-L1; assay = cell growth or viability, MTT; conditions = 72 h; measurement = IC50; result = > 100 µg/mL
SMILES = COc1cnc(OC)n2nc(NS(=O)(=O)c3c(OCC(F)F)cccc3C(F)(F)F)nc12; target or system = HaCaT; assay = cell growth or viability, CCK-8; conditions = 0.78 µM, 72 h; measurement = inhibition; result = 0.4%
SMILES = C#Cc1cccc(C=NNC(=O)c2ccc(Br)cc2)c1O; target or system = Cryptococcus neoformans; assay = microbial killing; measurement = MFC; result = 0.4 µg/mL
SMILES = N.N.[Cl][Pt][Cl]; target or system = OCI-Ly7; assay = cell growth or viability, ATP luminescence; conditions = 72 h; measurement = IC50; result = 6.54 µM
SMILES = Cc1cccc(CSc2nccc(OCCOc3cc(=O)oc4ccccc34)n2)c1; target or system = Human coronavirus 229E; assay = cytopathic effect; system = A549; conditions = 3.13 µM; measurement = inhibition; result = 20.4%
SMILES = C#Cc1ccc(O)c(C=NNC(=O)c2ccc(C3(C(F)(F)F)N=N3)cc2)c1; target or system = Candida albicans; assay = microbial growth; conditions = pH 7.4; measurement = MIC80; result = ≤ 0.25 µg/mL
SMILES = COC(=O)c1cc(-c2cccc(NC(=O)NCc3ccccc3)c2)on1; target or system = Klebsiella pneumoniae; assay = microbial growth, broth dilution; system = BAA1705; measurement = MIC; result = > 64 µg/mL
SMILES = COc1ccc(-c2cc(C(F)(F)F)c3c(N)c(C(=O)Nc4cccc(C)c4C)sc3n2)cc1; target or system = Mycobacterium tuberculosis; assay = microbial growth; system = H37RV; measurement = IC50; result = 0.97 µM
SMILES = COC(=O)c1cc(-c2cccc(NC(=O)Nc3cccc(C#N)c3)c2)on1; target or system = Mycolicibacterium fortuitum; assay = microbial growth, broth dilution; system = ATCC6841; conditions = 48 h; measurement = MIC; result = > 64 µg/mL
SMILES = COc1ccc(-c2cc(C(F)(F)F)c3c(N)c(C(=O)NC(C)c4ccccc4)sc3n2)cn1 (stereo not shown); target or system = Mycobacterium tuberculosis; assay = microbial growth; system = H37RV; measurement = IC50; result = 0.94 µM
SMILES = Cc1cc(OC(C)C(=O)N2CCc3ccccc32)ccc1Cl (stereo not shown); target or system = PFF0160c E182D; assay = enzyme activity, inhibitor, absorbance; measurement = IC50; result = 0.0621 µM
SMILES = COC(=O)c1cc(-c2cccc(NC(=O)Nc3ccc(C(F)(F)F)cc3)c2)on1; target or system = Pseudomonas aeruginosa; assay = microbial growth, broth dilution; system = ATCC27853; measurement = MIC; result = > 64 µg/mL
SMILES = Cc1cccc(NC(=O)c2sc3nc(-c4ccc5c(c4)OCO5)cc(C(F)(F)F)c3c2N)c1C; target or system = Mycobacterium tuberculosis; assay = microbial growth; system = H37RV; measurement = IC50; result = 0.86 µM
SMILES = C#Cc1ccc(C(=O)NN=Cc2cc(C#C)ccc2O)cc1; target or system = Cryptococcus neoformans; assay = microbial growth, broth dilution; conditions = pH 7.4; measurement = MIC80; result = 0.015 µg/mL (≈ 0.052 µM)

Excerpt of the above:
SMILES = Nc1ncnc2c([C@@H]3N[C@H](CO)[C@@H](O)[C@H]3O)c[nH]c12; target or system = unidentified influenza virus; assay = viral replication, inhibitor; system = MDCK; conditions = 9.5 µM; measurement = inhibition; result = 30.3%
SMILES = Cc1ccc(NC(=O)c2cc(S(=O)(=O)NC(C)(C)C)ccc2C)nc1; target or system = PFF0160c E182D; assay = enzyme activity, inhibitor, absorbance; measurement = IC50; result = > 10 µM
